Assay results of several laboratories.
Compare with care: the assays were run in different laboratories. Numbers after ± are the reported error.

| SMILES | test | test system | setting | tissue uptake |
| --- | --- | --- | --- | --- |
| CCCC[C@H](NC(=O)CNC(=O)CNC(=O)CN1CCN(CC(=O)O)CCN(CC(=O)O)CCN(CC(=O)O)CC1)C(=O)N[C@H]1CC(=O)NCCCC[C@@H](C(N)=O)NC(=O)[C@H](Cc2c[nH]c3ccccc23)NC(=O)[C@H](CCCNC(=N)N)NC(=O)[C@@H](Cc2ccccc2)NC(=O)[C@H](Cc2c[nH]cn2)NC1=O [lead-203 labelled] | – | C57 mouse, blood | intravenous, 0.056 MBq, 4 h | 0.59 ± 0.16 %ID/g |
| CCCC[C@H](NC(=O)CNC(=O)CNC(=O)CN1CCN(CC(=O)O)CCN(CC(=O)O)CCN(CC(=O)O)CC1)C(=O)N[C@H]1CC(=O)NCCCC[C@@H](C(N)=O)NC(=O)[C@H](Cc2c[nH]c3ccccc23)NC(=O)[C@H](CCCNC(=N)N)NC(=O)[C@@H](Cc2ccccc2)NC(=O)[C@H](Cc2c[nH]cn2)NC1=O [copper-64 labelled] | – | female C57 mouse, B16/F1 melanoma, stomach | intravenous, 0.037 MBq, 24 h | 1.21 ± 0.14 %ID/g |
| CC(C)C[C@H](NC(=O)C[C@H](O)[C@H](CC(C)C)NC(=O)[C@H](Cc1c[nH]cn1)NC(=O)CNC(=O)[C@@H](NC(=O)[C@H](C)NC(=O)[C@H](Cc1c[nH]c2ccccc12)NC(=O)[C@H](CCC(N)=O)NC(=O)[C@@H](Cc1ccccc1)NC(=O)CCNC(=O)CCNC(=O)CN1CCN(CC(=O)O)CCN(CC(=O)O)CCN(CC(=O)O)CC1)C(C)C)C(N)=O [lutetium-177 labelled] | – | mouse PC-3 xenograft, tumour | intravenous, 200 pmol, 24 h, without PA | 4.2 ± 1 %ID/g |
| O=C(O)CCC(NP(=O)(O)OCCC[C@@H](NC(=O)CC[C@H](NC(=O)CCCCCNC(=O)c1ccc([18F])cc1)C(=O)O)C(=O)O)C(=O)O (some centres unmarked) | – | mouse, CWR22Rv1 xenograft, bone | dose not given, 4 h, blocking agent pre-dosed | 0.041 ± 0.007 %ID/g |
| CC(C)[C@H](NC(=O)[C@@H]1CCCN1C(=O)[C@H](CCCNC(=N)N)NC(=O)[C@H](CS)NC(=O)[C@H](Cc1c[nH]c2ccccc12)NC(=O)[C@H](CCCNC(=N)N)NC(=O)[C@@H](Cc1ccccc1)NC(=O)[C@H](Cc1c[nH]cn1)NC(=O)[C@H](CCC(=O)O)NC(=O)[C@H](CS)NC(=O)[C@H](CS)NC(=O)CNC(=O)[C@@H]1CC(=O)N[C@@H](CCCNC(=N)N)C(=O)NCC(=O)N[C@@H](CC(=O)O)C(=O)N[C@H](Cc2ccc(O)cc2)C(=O)N1)C(N)=O [technetium-99m labelled] | – | C57 mouse, female, B16/F1 melanoma, blood | intravenous, 0.037 MBq, 24 h | 0.32 ± 0.44 %ID/g |
| CC(C)[C@H](NC(=O)[C@@H]1CCCN1C(=O)[C@H](CCCNC(=N)N)NC(=O)[C@H](CS)NC(=O)[C@H](Cc1c[nH]c2ccccc12)NC(=O)[C@H](CCCNC(=N)N)NC(=O)[C@@H](Cc1ccccc1)NC(=O)[C@H](Cc1c[nH]cn1)NC(=O)[C@H](CCC(=O)O)NC(=O)[C@H](CS)NC(=O)[C@H](CS)NC(=O)COCCOCCNC(=O)[C@@H]1CC(=O)N[C@@H](CCCNC(=N)N)C(=O)NCC(=O)N[C@@H](CC(=O)O)C(=O)N[C@H](Cc2ccc(O)cc2)C(=O)N1)C(N)=O [technetium-99m labelled] | – | nude mouse, M21 melanoma xenograft, bone | intravenous, 2 h | 0.27 ± 0.09 %ID/g |
| O=C([O-])CN1CCN(CC(=O)[O-])CCN(CC(=O)NCCc2ccc3c(c2)C2C=CCC2C(c2cc4c(cc2Br)OCO4)N3)CCN(CC(=O)[O-])CC1.[111In+3] (centres unmarked) | – | mouse, Hec50 endometrial tumour, heart | 1 h post injection | 1.46 ± 0.19 %ID/g |
| CCCC[C@H](NC(=O)CN1CCC(NC(=O)CN2CCN(CC(=O)O)CCN(CC(=O)O)CCN(CC(=O)O)CC2)CC1)C(=O)N[C@H]1CC(=O)NCCCC[C@@H](C(N)=O)NC(=O)[C@H](Cc2c[nH]c3ccccc23)NC(=O)[C@H](CCCNC(=N)N)NC(=O)[C@@H](Cc2ccccc2)NC(=O)[C@H](Cc2c[nH]cn2)NC1=O [gallium-68 labelled] | biodistribution | C57BL/6J mouse male tumour-bearing, adrenal glands | 2 h post injection, unblocked | 0.4 ± 0.2 %ID/g |
| CN(C)c1ccc(-c2nc3ccc(OCCCCCN4CCN5CCN(CC4)CC(=O)[O][Al]([18F])[O]C(=O)C5)cc3s2)cc1 | – | ICR mouse, kidney | intravenous, 10 min | 8.06 ± 2.28 %ID/g |
| CC(C)[C@H](NC(=O)[C@@H]1CCCN1C(=O)[C@H](CCCNC(=N)N)NC(=O)[C@H](CS)NC(=O)[C@H](Cc1c[nH]c2ccccc12)NC(=O)[C@H](CCCNC(=N)N)NC(=O)[C@@H](Cc1ccccc1)NC(=O)[C@H](Cc1c[nH]cn1)NC(=O)[C@H](CCC(=O)O)NC(=O)[C@H](CS)NC(=O)[C@H](CS)NC(=O)[C@@H]1CC(=O)N[C@@H](CCCNC(=N)N)C(=O)NCC(=O)N[C@@H](CC(=O)O)C(=O)N[C@H](Cc2ccc(O)cc2)C(=O)N1)C(N)=O [technetium-99m labelled] | – | C57 mouse, female, B16/F1 melanoma, muscle | intravenous, 0.037 MBq, 24 h | 0.22 ± 0.15 %ID/g |
| CCCC[C@H](NC(=O)CNC(=O)CNC(=O)CN1CCN(CC(=O)O)CCN(CC(=O)O)CC1)C(=O)N[C@H]1CC(=O)NCCCC[C@@H](C(N)=O)NC(=O)[C@H](Cc2c[nH]c3ccccc23)NC(=O)[C@H](CCCNC(=N)N)NC(=O)[C@@H](Cc2ccccc2)NC(=O)[C@H](Cc2c[nH]cn2)NC1=O [copper-64 labelled] | – | female C57 mouse, B16/F1 melanoma, brain | intravenous, 0.037 MBq, 0.5 h | 0.1 ± 0.03 %ID/g |
| COC(=O)c1ccc(-c2cn(Cc3cc(Cl)ccc3O[11CH3])nn2)cc1 | PET/CT | C57BL/6 mouse, kidney | 60 min | 6.19 %ID/cc |
| CC[C@H](C)[C@H](NC(=O)[C@H](C)NC(=O)[C@H](CC(C)C)NC(=O)[C@H](Cc1ccc(O)c(I)c1)NC(C)=O)C(=O)NCCCCCC(=O)N1CCC[C@H]1C(=O)N[C@@H](C)C(=O)N[C@@H](CC(=O)O)C(=O)N[C@@H](CCC(=O)O)C(=O)N[C@H](C(=O)N[C@@H](CC(=O)O)C(=O)NCC(=O)N[C@@H](CCCNC(=N)N)C(=O)N[C@@H](CCCNC(=N)N)C(=O)N[C@@H](CCCNC(=N)N)C(=O)N[C@@H](CCCN)C(=O)N[C@@H](CCCNC(=N)N)C(=O)N[C@@H](CCCNC(=N)N)C(=O)N[C@@H](CCCCN)C(=O)N[C@@H](CCCCN)C(=O)N[C@@H](CCCNC(=N)N)C(=O)N[C@@H](CCCCNC(=O)CN1CCN(CC(=O)O)CCN(CC(=O)O)CCN(CC(=O)O)CC1)C(N)=O)C(C)C [iodine-125 labelled] | – | BALB/c mouse, female, blood | intravenous, 0.185 MBq, 1 h | 3.2 ± 0.9 %ID/g |
| CCCC[C@H](NC(=O)CNC(=O)CNC(=O)CN1CCN(CC(=O)O)CCN(CC(=O)O)CC1)C(=O)N[C@H]1CC(=O)NCCCC[C@@H](C(N)=O)NC(=O)[C@H](Cc2c[nH]c3ccccc23)NC(=O)[C@H](CCCNC(=N)N)NC(=O)[C@@H](Cc2ccccc2)NC(=O)[C@H](Cc2c[nH]cn2)NC1=O [gallium-67 labelled] | – | female C57 mouse B16/F1 melanoma, normal organs except kidney | intravenous, 0.037 MBq, 24 h | < 1.62 %ID/g |
